Measured values from different studies.
Lines come from different studies, so protocols differ. “And” joins repeats or separate records; there may be more than shown. ± marks the error that the study gave.
rep main protease: Replicase polyprotein 1ab, main protease (rep, Severe acute respiratory syndrome coronavirus 2, UniProt P0DTD1)
rep papain-like protease: Replicase polyprotein 1ab, papain-like protease (rep, Severe acute respiratory syndrome coronavirus 2, UniProt P0DTD1)

The inhibition of `O=C(Oc1ccc(OC(=O)c2ccc(C(=O)Nc3ccccc3C(=O)O)c(C(=O)O)c2)cc1)c1ccc(C(=O)Nc2ccccc2C(=O)O)c(C(=O)O)c1` is reported as 10.2% (rep main protease; enzyme activity, inhibitor; 100 µg/mL).
The inhibition of `O=C(O)c1ccccc1[Se][Se]c1ccccc1C(=O)O` is reported as 23.5% (rep main protease; enzyme activity, inhibitor; 40 µM, mean of repeats).
The inhibition of `O=C(Oc1cncc(Cl)c1)c1cccs1` is reported as 96.1% (rep main protease; enzyme activity, inhibitor; 50 µM).
`C[C@H]1CC[C@@H]2[C@H]([C@@H]1n1[se]c3ccccc3c1=O)C2(C)C` has an inhibition of 102% (rep main protease; enzyme activity, inhibitor; 40 µM).
`O=C(NC1CCC(F)(F)CC1)C(c1cncnc1)N(C(=O)C(F)Cl)c1ccc(-c2cncs2)cc1` (centres unmarked) gave an inhibition of 100% and 96.9% (rep main protease; enzyme activity; 0.309 µM).
The inhibition of `CCOC(=O)CC[C@H](NC(=O)c1ccccc1[Se][Se]c1ccccc1C(=O)N[C@@H](CCC(=O)OCC)C(=O)OCC)C(=O)OCC` is reported as 66.9% (rep main protease; enzyme activity, inhibitor; 40 µM, mean of repeats).
Under inhibition, `COc1cc(C(=O)N(CCC(=O)N2CCNCC2)Cc2cccc(Cl)c2)cc(OC)c1OC` is recorded as “inhibited” (Replicase polyprotein 1ab, nsp3 macrodomain (rep, Severe acute respiratory syndrome coronavirus 2, UniProt P0DTD1); ADP-ribosylhydrolase activity, gel-based; concentration not given).
`CC(C)[C@@H]1CC[C@@H](C)C[C@H]1NC(=O)c1ccccc1[Se][Se]c1ccccc1C(=O)N[C@@H]1C[C@H](C)CC[C@H]1C(C)C` gave an inhibition of 96.1% (rep main protease; enzyme activity, inhibitor; 40 µM, mean of repeats).
For `COc1cccc(NC(=O)CSc2ccccc2C(=O)Nc2ccc3c(c2)NC(=O)C(C)O3)c1` (centres unmarked), the inhibition was 0% (rep papain-like protease; enzyme activity, inhibitor; 100 µg/mL).
The inhibition of `O=c1c2ccccc2[se]n1-c1ccncc1F` is reported as 93.7% (rep main protease; enzyme activity, inhibitor; 0.3 µM).
`COc1ccc(-c2cc(=O)c3c(O)cc(O)cc3o2)cc1Oc1ccc(-c2cc(=O)c3c(O)cc(O)cc3o2)cc1` gave an inhibition of 60.7% (rep papain-like protease; enzyme activity, inhibitor; 2.5 µM).
For `O=c1cc(-c2ccc(O)cc2)oc2c(C3OC(CO)C(O)C(O)C3O)c(O)c(C3OC(CO)C(O)C(O)C3O)c(O)c12` (centres unmarked), the inhibition was 76.5% (rep main protease; enzyme activity, inhibitor; 8 µM).
With `COC(=O)c1cc2c(=O)n3ccccc3nc2n1Cc1ccccc1` the inhibition was 10% (rep main protease; enzyme activity, inhibitor; 1 µM).
For `O=C(Oc1cncc(Cl)c1)c1ccc2cc[nH]c2c1`, the inhibition was 100% (rep main protease; enzyme activity, inhibitor, fluorescence; 10 µM, pH 7.2).
`c1ccc([Se][Se]c2ccccc2)cc1` gave an inhibition of 104% (rep main protease; enzyme activity, inhibitor; 40 µM, mean of repeats).
With `CCN1C(=O)CCC1c1c(O)cc(O)c2c1O[C@H](c1cc(O)c(O)c(O)c1)[C@H](OC(=O)c1cc(O)c(O)c(O)c1)C2` (some centres unmarked) the inhibition was 93.66 ± 0.14% (rep main protease; intracellular protease activity; HEK293T; 100 µM).
`CCOC(=O)CC[C@@H](C(=O)OCC)n1[se]c2ccccc2c1=O` has an inhibition of 102% (rep main protease; enzyme activity, inhibitor; 40 µM, mean of repeats).
For `N=C(N)Nc1ccc(-c2ccc(-c3ccc(NC(=N)N)c(Cl)c3)o2)cc1Cl`, the inhibition was 100% (rep main protease; enzyme activity, inhibitor, fluorescence; 50 µM, pH 7.2).
`C[C@](C(=O)NC1CCOCC1)(c1cncnc1)N(C(=O)[C@H](F)Cl)c1ccc(OC(F)(F)Cl)cc1` gave an inhibition of 98.9% (rep main protease; enzyme activity, inhibitor; 3.333 µM).
`O=C(O[C@@H]1[C@@H](O)[C@H](Oc2cc(O)c3c(c2)O[C@H](c2ccccc2)CC3=O)O[C@@H]2COC(=O)c3cc(O)c(O)c(O)c3-c3c(cc(O)c(O)c3O)C(=O)O[C@@H]12)c1cc(O)c(O)c(O)c1` — result for inhibition: “inhibited” (rep main protease; enzyme activity, inhibitor, mass spectrometry; concentration not given).
For `C/C=C/C=C/C(=O)Nc1cccc(/C=C/C(=O)c2cccc(NC(=O)/C=C/C=C/C)c2)c1`, the inhibition was 95.2% (rep main protease; enzyme activity, inhibitor; 100 µM).
For `O=C(NC1CCN(c2ncnc3[nH]cnc23)CC1)c1cccc(NS(=O)(=O)c2ccc(C(F)(F)F)cc2)c1`, the inhibition was 1.09% (Replicase polyprotein 1ab, nsp14 with nsp10 (rep, Severe acute respiratory syndrome coronavirus 2, UniProt P0DTD1); exonuclease activity; SARS-CoV-2; 0.01221 µM).
`C=C1CC[C@@H]2[C@](C)(COC(C)=O)[C@H](OC(C)=O)CC[C@@]2(C)[C@@H]1C[C@H](SC(=S)N1CCN(C(c2ccccc2)c2ccccc2)CC1)C1=CCOC1=O` gave an inhibition of over 50% (rep main protease; enzyme activity, inhibitor, fluorescence; 10 µM).
For `C[C@](C(=O)NC1CCC(F)(F)CC1)(c1cncnc1)N(C(=O)[C@H](F)Cl)c1ccc(OC(F)(F)F)cc1`, the inhibition was 99% (rep main protease; enzyme activity, inhibitor; 25 µM).
`O=c1c2ccccc2sn1-c1ccccc1` gave an inhibition of 97.3% (rep main protease; enzyme activity, inhibitor; 10 µM).
Under inhibition, `CNc1nc(NC(CCO)c2ccccc2Cl)nc(N2CCN(C(=O)CCl)CC2)n1` (centres unmarked) is recorded as “inhibited” (rep main protease; inhibitor; 1 µM).
For `Cc1ccnc(-n2[se]c3ccccc3c2=O)c1`, the inhibition was 14.6% (rep main protease; enzyme activity, inhibitor; 0.3 µM).
For `COC(=O)[C@H](C)n1[se]c2ccccc2c1=O`, the inhibition was 105% and 104% (rep main protease; enzyme activity, inhibitor; 40 µM).
With `O=C(NC1CCC(F)(F)CC1)C(c1cncnc1)N(C(=O)C(F)Cl)c1ccc(OC(F)(F)F)cc1` (centres unmarked) the inhibition was 99.6% (rep main protease; enzyme activity, inhibitor; 0.926 µM).

Repeated from above:
`COc1ccc(-c2cc(=O)c3c(O)cc(O)cc3o2)cc1Oc1ccc(-c2cc(=O)c3c(O)cc(O)cc3o2)cc1` gave an inhibition of 60.7% (rep papain-like protease; enzyme activity, inhibitor; 2.5 µM).
For `O=c1cc(-c2ccc(O)cc2)oc2c(C3OC(CO)C(O)C(O)C3O)c(O)c(C3OC(CO)C(O)C(O)C3O)c(O)c12` (centres unmarked), the inhibition was 76.5% (rep main protease; enzyme activity, inhibitor; 8 µM).
